Assay results from different studies.
Every numbered part comes from another study and shows a few of its results, in no order. Changes are numbered by the printed parent chain.

Set 1
Target: CCNE1, cyclin fold, Cln2 fusion (human)
Method: yeast growth competition, sequencing
Matrix: yeast
Setting: strong parent motif
Reference: not given
Reading: higher = stronger binding
Quantity: normalised enrichment score
Starting sequence: CDC25A docking peptide (human); PPHRRRLLFACSP
L8D: 3.41
R5N: -0.102
P1C: 0.364
C11D: 1.87
A10Y: 0.663
F9E: 0.426
P13L: 0.678
P2N: 1.47
R4G: 1.08
R6L: 1.65
L7P: 0.0101
A10K: 1.53
F9M: 0.852
L7K: 0.852

Set 2
Target: Ras GTPase-activating protein-binding protein 1, C-terminal RGG region (G3BP1, Homo sapiens, UniProt Q13283)
Chain of UniProt Q13283 (whole entry, looked up): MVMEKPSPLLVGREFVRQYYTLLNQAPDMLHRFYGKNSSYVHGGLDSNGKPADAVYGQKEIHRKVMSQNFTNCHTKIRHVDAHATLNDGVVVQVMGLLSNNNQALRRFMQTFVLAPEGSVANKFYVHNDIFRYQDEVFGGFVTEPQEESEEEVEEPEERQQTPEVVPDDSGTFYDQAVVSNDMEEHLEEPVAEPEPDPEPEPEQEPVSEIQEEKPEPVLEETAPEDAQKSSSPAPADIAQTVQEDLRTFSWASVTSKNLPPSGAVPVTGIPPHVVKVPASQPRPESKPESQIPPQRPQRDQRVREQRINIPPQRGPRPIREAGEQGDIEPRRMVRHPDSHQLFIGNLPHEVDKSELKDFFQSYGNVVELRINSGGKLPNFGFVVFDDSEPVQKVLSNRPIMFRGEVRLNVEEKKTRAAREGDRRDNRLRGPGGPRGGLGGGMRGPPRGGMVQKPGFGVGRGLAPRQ
Method: RNA Bind-n-Seq
Form: RNA
Matrix: in vitro
Tested at: 1 µM
Setting: whole 134-nt RNA, ends assumed
With: 150 mM KCl
Reference: input library
Reading: higher = stronger binding
Quantity: log2 enrichment
All sequences stand within: GGGAGUUCUACAGUCCGACGAUC … UGGAAUUCUCGGGUGUCAAGG
GCAGGAAGUAAAAACAAAUGGAAAUGCUUCGAAAAGUGGCAGGGGUGGGGGUUGCUAAGGAAAGGGUGGGAUGGGAGUGGGUAAAGAGUU: 1.91
UGGGAGGCGGAUUUUGUUUAUUUUUUUAGCUCAUUUCCAGGGGUGGGAAUUUUUUUUUAAUAUGUGUCAUGAAUAAAGUUGUUUUUGAAA: 4.06
UCCUCAAGUCCUGUGCUACACAUCGUAUGUACCGAAUCGGCGGGCGGCGGGGAAAGUAUUAUGUUACGCCGUUCGGAUCUGCACUUCCAG: -0.369
UCAAGUCCUGUGCUACACAUCGUAUGUACCGAAUCGGGUGGGAAAGGGAAAGGGAAAGUAUUAUGUUACGCCGUUCGGAUCUGCACUUCC: 1.49
GUCCUGUGCUACACAUCGUAUGUACCGAAUCGGGUUUUUGGGAAAAAAAGGGAAAGGGAAAGUAUUAUGUUACGCCGUUCGGAUCUGCAC: -0.5
AGUCCUGUGCUACACAUCGUAUGUACCGAAUCGGGGUGGGGUUUUUUUGGGGUGGGGAAAGUAUUAUGUUACGCCGUUCGGAUCUGCACU: 1.73
CACAGACAACACGCACCCACACAGACACAGAGGGAAGGGGUAGGGAUGGGGACAGGGUGCACAGCAGGGCGGGGUAGGACCCCAGCCCCU: -0.145
UCCAGCCACUCACCGGCGAUCCAGGUCCAGAACCCCCCUGAUAAGCCGACGUAGGUCCAGAUCUCGAACUUCACCAGUCAGCCGGAGACG: -0.247
AAGUCCUGUGCUACACAUCGUAUGUACCGAAUCGGAAAGGUUUUUUUGGUUUUUGGAAAGUAUUAUGUUACGCCGUUCGGAUCUGCACUU: -2.33
CCUGUGCUACACAUCGUAUGUACCGAAUCAAAUUUUUAAAUUUUUUUAAAUUUUUUUAAAAAAGUAUUAUGUUACGCCGUUCGGAUCUGC: -2.41
CCUCAAGUCCUGUGCUACACAUCGUAUGUACCGAAUCGGUGGGGUGGGGUGGGAAAGUAUUAUGUUACGCCGUUCGGAUCUGCACUUCCA: 1.08
UGGCCUUGGUGGCAUGCGGGGAGGAAGAGGUGGCCUCAUGGAUCGUGGUGGUCCCGGUGGAAUGUUCAGAGGUGGCCGUGGUGGAGACAG: 1.98
UCCUGUGCUACACAUCGUAUGUACCGAAUCGGGGAAAAAAGGAAAAAAGGAAAAAAGGGGAAAGUAUUAUGUUACGCCGUUCGGAUCUGC: -1.46
GCAGGAAGUAAAAACAAAUGGAAAUGCUUCGGAUAGUGGCAGGGGUGGGGGUUGCUAAGGAAAGGGUGGGAUGGGAGUGGGUACAGAGUU: 0.511

Set 3
Target: RNA binding protein fox-1 homolog 2, RRM domain, GST-SBP tag (RBFOX2, Homo sapiens, UniProt O43251-10, residues 100-194)
Method: RNA Bind-n-Seq
Form: RNA
Matrix: in vitro
Tested at: 365 nM
Setting: natural RNA segment, single round, ends assumed
Reference: no-protein control
Reading: higher = stronger binding
Quantity: RBNS enrichment (R)
All sequences stand within: GGGAGUUCUACAGUCCGACGAUC … UGGAAUUCUCGGGUGCCAA
Residues (chain): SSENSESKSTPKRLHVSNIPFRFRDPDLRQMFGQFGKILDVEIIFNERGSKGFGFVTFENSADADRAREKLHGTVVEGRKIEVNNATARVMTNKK
GUUUAGUCAUCUAAGGCUUCAUUGUACUUCGGGGAGAGCUAUAAGUAACUCACCUUUAAAACAACAGGCUCUGAUUUGCUGAAGAGGUUUGGUAUUUUUUAAGGUAUGUC: 0.409
AGACACUGUGGAAGUGGGAGGGUAGCCUGGCCCUGUCUAGGAGAAAGGCCCUGCGUGGUCAGGCCUGGUUCUGUGACCUGGAAGGUGACAAGCCAUCCAUCCCCCAUGGG: 1.36
GUGUGUCGGGCUUAUUAUUGUGACCAUCCUGCUGCUCCAGAGUGCCUUUCCAGGUUUCCUUUAGCUUCCCUGCUUCCUGGGAAUCAGGAGCCUGGACACUGCCAUCUCUA: 0.372
AAUAUUGGAAGCUGUGUGUAAGAUUGAUUCAGCAUUCCAUGCACUUGCUUUAAAAUUUAGUCCUGUGCAUACUGUGGUGUUUUUACUGUGCAUAUUUGAAUUUUUCAUGC: 0.738
AUACUAGGAACAAGUAGUUUCCAUAUAUUUCGGAACUUUUAAAAAGACAAAAUGAAACAAAACCGAGCAGUUAUGGGUUUUGUUCUAUAGGAUGCCAUCAGCCAUCGAGG: 0.485
CCGCUUCCACCACCAUGGUGUUUGUUUCUAGAACUUUUGCCAGUCCUUGAAGAAUGGGUUCUGUGUCUAAUCCUGAAACAAAGAAAACUACAAGCUGGAGUGUAGGAAUU: 0.305
AAGACUUUGCAGCAUUUUAGCCAGGCAGUAUUUACUCAUUAUUAGGAAAAUCAAGAUGUGGCUGAAGAUCAGAGGCUCAGUUAGCAACCUGUGUUGUAGCAGUGAUGUCA: 0.552
UUACUGUCCUUACCCUUCAUCCAACAAACUCUGAAGCCAGUCUCUAGCUUACUGCAAGAAAAAGAAGUGUACAUAAUAUUUAAGAUGCUGAGUAUUUCAUAGGAAAGCUG: 0.441
GGGAGUGUCAGGCCUGGAGUCCACAGCCUCACCUGCUGCUGUAGCUGUCAGCUGGACCUGGUGGCUUGUGGUUGAUGGUCACUAUUAGUGGGUGAGUGGGGAUGACCUGG: 0.915
UUUUGCUCAGGAAGUCUUUGGGGAAAUUAAGGAUCUUUGAAGCUCUGAAAUAGGUGAUCAGGUUAGUGGUGUCUGUCAGCUGUCUAAGAGGUUGGAAAAUGAACUACUCA: 0.478
UUAUUGCUGUUUGAAUAAUAUGAUUAAAUAGAAGGUUUGUGCCAGUAGACAUUAUGUUACUAAAUCAGCACUUUAAAAUCUUUGGUUCUCUAAUUCAUAUGAAUUUGCUG: 0.301
GCCCCUGCAGUGUCCUUCGUUCACUAGACAUUGCGCCUGGCUUGCUGUGGGUGGGGAUGAGUUGCUUGACUCAUGUUUAGACGCAUGGUUCUGUCUGGUGAUUGAGGUGC: 4.92

Set 4
Target: Sal-like protein 4, full length isoform B (SALL4, Homo sapiens, UniProt Q9UJQ4-2, residues 1-616)
Method: universal PBM
Form: double-stranded DNA, one strand shown
Matrix: in vitro
Tested at: not given
Setting: 8-mer, flanks averaged, mean of replicates
Reading: higher = stronger binding
Quantity: E-score
Target sequence (chain): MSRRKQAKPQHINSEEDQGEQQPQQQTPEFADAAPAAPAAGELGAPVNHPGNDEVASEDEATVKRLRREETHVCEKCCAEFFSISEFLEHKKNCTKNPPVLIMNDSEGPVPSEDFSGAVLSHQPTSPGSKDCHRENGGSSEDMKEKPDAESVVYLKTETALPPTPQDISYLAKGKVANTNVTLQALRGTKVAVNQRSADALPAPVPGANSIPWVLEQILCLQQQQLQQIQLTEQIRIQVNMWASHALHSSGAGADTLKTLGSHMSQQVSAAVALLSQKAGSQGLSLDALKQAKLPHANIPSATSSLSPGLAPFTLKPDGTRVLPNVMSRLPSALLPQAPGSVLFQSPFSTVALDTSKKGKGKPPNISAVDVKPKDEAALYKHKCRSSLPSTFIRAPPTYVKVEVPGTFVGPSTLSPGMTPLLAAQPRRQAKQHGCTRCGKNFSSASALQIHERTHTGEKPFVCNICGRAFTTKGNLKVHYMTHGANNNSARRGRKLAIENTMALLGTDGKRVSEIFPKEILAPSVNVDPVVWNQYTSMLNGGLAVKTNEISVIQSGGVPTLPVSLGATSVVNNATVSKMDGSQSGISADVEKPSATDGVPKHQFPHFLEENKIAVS
AATGGACA: 0.206
AGATTTGA: 0.0667
CTTAACTC: 0.0907
AAGCTACC: 0.00354
AAACCGCA: -0.271
AGAAGCAT: 0.121
CCATCCAG: -0.0278
GGGAAAAC: -0.0765
ATTGACAG: 0.125
ACAATAGA: 0.245
GAGTACAC: -0.0862
AGTATAAT: 0.366
CGAAGTAA: 0.0624
CTACATGC: 0.135

Set 5
Target: PABPC1L2, full length, GST fusion (mouse, UniProt A0ABA7IW68)
Method: RNAcompete
Form: RNA
Matrix: in vitro
Tested at: 20 nM
Setting: 7-mer, probes averaged, single round
Reference: mean of 7-mers
Reading: higher = stronger binding
Quantity: 7-mer Z-score
Residues (chain): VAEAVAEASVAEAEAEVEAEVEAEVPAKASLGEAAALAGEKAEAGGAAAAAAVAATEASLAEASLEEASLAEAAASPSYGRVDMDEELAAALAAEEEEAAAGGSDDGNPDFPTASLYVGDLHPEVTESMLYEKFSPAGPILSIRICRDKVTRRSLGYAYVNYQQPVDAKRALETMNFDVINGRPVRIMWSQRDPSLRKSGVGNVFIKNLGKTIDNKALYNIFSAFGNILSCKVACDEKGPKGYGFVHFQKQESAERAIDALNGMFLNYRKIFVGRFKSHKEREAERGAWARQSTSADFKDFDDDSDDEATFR
CGUGACC: -0.255
GGCAUUC: -0.0863
CGUAGCG: -0.322
UCCUCAU: -0.365
UGAGAUC: -0.148
UUCAAAU: -0.0301
UUCGAUG: -0.182
UGGCGAC: -0.124
GAGGGCG: 0.258
CUGUCCC: -0.273
UUCCCAG: -0.338
CGUAUCU: -0.396
CAGCCUG: -0.322
AUAUUCC: -0.271
GUUCGGU: -0.345
AUCACGG: 0.0515

Set 6
Target: Histone acetyltransferase KAT6A, both winged helices, GST fusion (KAT6A, Homo sapiens, UniProt Q92794, residues 1-181)
Method: protein binding microarray
Form: double-stranded DNA, one strand shown
Matrix: in vitro
Tested at: not given
Setting: 8-mer, flanks averaged, mean of 2 arrays, mostly near background
Reference: not given
Reading: higher = stronger binding
Quantity: E-score
Residues (chain): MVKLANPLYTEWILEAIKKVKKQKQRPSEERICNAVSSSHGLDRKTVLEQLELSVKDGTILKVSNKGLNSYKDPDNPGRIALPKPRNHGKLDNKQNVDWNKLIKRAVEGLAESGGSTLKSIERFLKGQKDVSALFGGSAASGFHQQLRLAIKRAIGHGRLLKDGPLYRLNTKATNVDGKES
ACTTGTCG: 0.025
GTACTCAA: -0.0711
CATAGATA: -0.14
CGCTACTC: 0.228
CCAGAGCG: 0.0556
CAAGGACA: -0.119
CTTGATGA: -0.0387
TAACCACA: -0.0724
AACACCAT: -0.0421
CTTGGGGA: -0.124
ATATTCTG: -0.0879
CCAAGGGA: -0.236
AAGCGTGG: 0.035
GCGCGGAC: 0.344
CTCGAGCC: 0.0424
ATTGCCAA: -0.178
GTCTGCAC: -0.0259
AAGAGAAT: -0.112
ACACAAGT: -0.0726
AGATCTGA: -0.0104
GACCAGAC: -0.259
ACAAAGTG: -0.219
ATGGAAAA: -0.0946
CGACCATA: 0.0369
GTTCCCGA: 0.172
